Published values of several laboratories.
Protocols differ between the studies behind these lines. Values joined by “and” are separate records of one study, mostly repeats; a detail may differ. Numbers after ± are the reported error.

| SMILES | organism | assay | test system | conditions | how to read | endpoint | value |
| --- | --- | --- | --- | --- | --- | --- | --- |
| COc1cccc(-c2n[nH]c(SCc3ccccn3)n2)c1OC | Salmonella typhimurium | Ames test, plate incorporation | TA98 | 1.0 mg/plate, with rat liver S9 |  | revertant colonies per plate | 25 |
| OC(CCN1CC=C(c2ccc(F)cc2)CC1)c1ccc(F)c2ccccc12 (stereo not shown) | Salmonella typhimurium | SOS/umu test | TA1535/pSK1002 | 0.008 mg/mL, 4 h, with S9, full range |  | survival | 94.8% |
| CN(CC(C)(C)C)N=O | Escherichia coli | plate incorporation | WP2uvrA pKM101, methanol | 150 µg/plate, without S9 |  | revertant colonies per plate | 134 and 156 |
| O=[N+]([O-])c1ccc(NC2CCNCC2)c(C(F)(F)F)c1 | Salmonella typhimurium | SOS/umu test | TA1535/pSK1002 | 1 mg/mL, 4 h, without S9, full range |  | survival | 27.7% |
| CC(C)N(C)N=O | Salmonella typhimurium | mutagenicity, Ames plate incorporation | TA1535 | 50 µg/plate, 3 d, without S9, methanol |  | revertant colonies per plate | 19 ± 5 |
| CC(=O)N1CCC(C(=O)N2CCN3C(=O)c4cc(-c5ccccc5)ccc4NC(=O)C3C2)CC1 (stereo not shown) | Salmonella typhimurium |  | TA1535 | 5.0 µg/plate |  | revertants per plate | 12 |
| COCCN(CCOC)N=O | Escherichia coli | mutagenicity, Ames plate incorporation | WP2 uvrA pKM101 | 2500 µg/plate, 3 d, without S9, methanol |  | revertant colonies per plate | 134 ± 5 |
| Cc1c(Cl)c(=O)oc2cc(OCCCC[Se]C#N)ccc12 | Caenorhabditis elegans |  | N2 Bristol, NGM with E. coli OP50 | 10 µM, 3 days |  | developmental defects | 0% |
| Cc1cc(C(=O)NC(C)(C)COc2cccc3c2C(N)=NS(=O)(=O)N3)cc(C)n1 | Salmonella typhimurium | Ames test, initial | TA1537 | 5000 µg/plate | baseline: solvent control | revertant ratio | 1.2 |
| O=[N+]([O-])c1ccc(N2CCC(NCCC(O)c3ccc(F)c4ccccc34)CC2)c(C(F)(F)F)c1 (stereo not shown) | Salmonella typhimurium | SOS/umu test | TA1535/pSK1002, TGA medium | 0.000244 mg/mL, 4 h, without S9 |  | survival | 110% |
| O=NN1CCN(C2CCCC2)CC1 | Escherichia coli | mutagenicity, Ames plate incorporation | WP2 uvrA pKM101 | 5000 µg/plate, 3 d, without S9, methanol |  | revertant colonies per plate | 67.3 ± 11 |
| CC(C)C[C@H](NC(=O)[C@H](Cc1c[nH]cn1)NC(=O)[C@H](Cc1c[nH]cn1)NC(=O)[C@H](Cc1ccc(O)cc1)NC(=O)[C@@H](N)CS)C(=O)N[C@H](C(=O)N[C@@H](CC(C)C)C(=O)N[C@H](C(=O)N[C@H](C(=O)NCC(=O)NCC(=O)N[C@@H](CO)C(=O)O)C(C)C)[C@@H](C)O)C(C)C | Epstein-Barr virus |  | B-NDG humanized mouse, EBV-infected | 20 mg/kg, day 28 |  | body weight | 20.9 g and 22.1 g |
| [Cl-].[Cl-].[Pt+2].[Ru+2].c1ccc(-c2nccnc2-c2ccccn2)nc1.c1cnc2c(c1)ccc1cccnc12.c1cnc2c(c1)ccc1cccnc12 | Danio rerio |  | embryos | 45 µM, 48 h |  | survival rate | 73.3 ± 2.8% |

Repeated from above:
| SMILES | organism | assay | test system | conditions | how to read | endpoint | value |
| --- | --- | --- | --- | --- | --- | --- | --- |
| [Cl-].[Cl-].[Pt+2].[Ru+2].c1ccc(-c2nccnc2-c2ccccn2)nc1.c1cnc2c(c1)ccc1cccnc12.c1cnc2c(c1)ccc1cccnc12 | Danio rerio |  | embryos | 45 µM, 48 h |  | survival rate | 73.3 ± 2.8% |
